Assay results from different studies.
Each line is one published result; not all experiments were run side by side. Values joined by “and” are separate records of one study, mostly repeats; a detail may differ. ± marks the error that the study gave.

`Cc1c(Cc2ccc(OC(C)C(=O)O)cc2)c2ccc(C(=O)NC(C)c3ccc(C(C)(C)C)cc3)cc2n1C` (mixture of isomers) gave a half-life of over 1 h (metabolic stability; mouse, liver microsomes).
`COc1cccc(OC)c1-c1cc(C(=O)NC2(C(=O)O)C3CC4CC(C3)CC2C4)nn1-c1ccc(C(=O)N(C)CCCN(C)C(=O)[C@H](CCCCNC(=O)[C@H](CC(C)C)NC(=O)C2OC2C(=O)O)NC(=O)CN2CCN(CC(=O)[O-])CCN(CC(=O)[O-])CCN(CC(=O)[O-])CC2)cc1C(C)C.[177Lu+3]` (mixture of isomers) gave a tumour-to-liver ratio of 5.54 (mouse, HT-29 xenograft; 4 h post injection, biodistribution; reference: tumour over liver uptake).
`CN1CCC[C@]1(C)/C=C/S(=O)(=O)NC(=O)Nc1c2c(cc3c1CCC3O)CCC2` (stereo partly shown) has an AUC(0-tau) of 350 µg·h/mL (human, plasma; oral, 50 mg twice daily of parent drug, day 14, metabolite of dosed drug).
For `Cc1nc2cc(C(=O)N[C@@H](C)c3ccc(C(C)(C)C)cc3)ccc2n1Cc1cc(Cl)cc(O[C@H](C)C(=O)O)c1`, the half-life was 0.795 h (metabolic stability; mouse, liver microsomes).
`CC(C)[C@H](NC(=O)[C@H](Cc1c[nH]c2ccccc12)NC(=O)[C@H](CCCNC(=N)N)NC(=O)[C@H](CCCNC(=N)N)NC(=O)[C@@H](NC(=O)[C@@H](NC(=O)[C@H](CCCNC(=N)N)NC(=O)[C@@H](NC(=O)[C@@H](NC(=O)[C@H](CCCNC(=N)N)NC(=O)[C@H](CCCNC(=N)N)NC(=O)[C@@H](NC(=O)[C@H](Cc1c[nH]c2ccccc12)NC(=O)[C@H](CCCNC(=N)N)NC(=O)[C@H](CCCNC(=N)N)NC(=O)[C@@H](NC(=O)[C@H](CCCNC(=N)N)NC(=O)[C@H](CCCNC(=N)N)NC(=O)[C@@H](NC(=O)[C@H](Cc1c[nH]c2ccccc12)NC(=O)[C@H](CCCNC(=N)N)NC(=O)[C@@H](N)CCCNC(=N)N)C(C)C)C(C)C)C(C)C)C(C)C)C(C)C)C(C)C)C(C)C)C(=O)N[C@@H](CCCNC(=N)N)C(=O)N[C@@H](CCCNC(=N)N)C(=O)O` has a urinary glucose of 71 mg/dL (CD-1 mice; intravenous, 15 mg/kg, 6-24 h).
With `[2H]C1([2H])C[C@@H](C[C@@H](C#N)NC(=O)[C@@H]2[C@@H]3[C@H](CN2C(=O)[C@@H](NC(=O)C(F)(F)F)C(C)(C)C)C3(C)C)C(=O)N1` the intrinsic clearance was 10.6 mL/min/kg (human liver microsomes; scaled to liver).
`Cc1cc(C)nc(NC(=S)N2CCN(Cc3ccc(C(F)(F)F)cc3)CC2)c1` gave an AUC extrapolated of 0.1% (plasma; intraperitoneal, 30 mg/kg).
With `O=C(Nc1cnccc1-c1ccc([18F])cc1)c1ccnc(NC(=O)C2CC2)c1` the SUV was 0.24 (ex vivo gamma counting; GSK-3β transgenic mice, early-stage, cortex; intravenous, 120 min, mean, P-gp inhibitor pretreatment, with: tariquidar 15 mg/kg iv).
The absorption maximum of `CCCCN1C(=O)c2cccc3c(NCCN4CCOCC4)ccc(c23)C1=O` is reported as 438 nm (methanol).
The remaining compound of `COC(=O)[C@@]1(C)C=C(C(=O)Nc2cccc(C(=O)Nc3ccc(Nc4nccc(-c5cccnc5)n4)c(C)c3)c2)C(=O)CC1` is reported as 18.9% and 20.1% (rat Wistar male, plasma; 1 µM, 30 min).
For `C/C(N)=N/C(=N\S(=O)(=O)c1ccc(C(F)(F)F)cc1)N1C[C@H](c2ccccc2)C(c2ccc(Cl)cc2)=N1`, the half-life was 1.3 h (C57BL/6 mouse, lung; intravenous, 10 mg/kg).
For `CCC(=O)N(C)c1ccc(Cl)c(Cl)c1`, the plasma concentration was 209 ng/mL and 261 ng/mL (LC-MS/MS; mouse C57BL/6 female, plasma; subcutaneous, 2 mg/kg, 0.5 h).
`C=CC(=O)Nc1cc(Nc2nccc(-c3cn(C)c4ccccc34)n2)c(OC)cc1N(C)CCNC` gave a recovery of 97.8% (storage stability; human dried blood spots; 5 h, -80 °C, LLOQ level).
For `CCCCN1C(=O)c2cccc3c(NCCCCCCCCCCN4CCOCC4)ccc(c23)C1=O`, the absorption maximum was 428 nm (ethyl acetate).
For `O=C(Nc1cnccc1-c1ccc([18F])nc1)c1ccnc(NC(=O)C2CC2)c1`, the SUV was 6.08 (ex vivo gamma counting; GSK-3β transgenic mice, early-stage, liver; intravenous, 120 min, mean, P-gp inhibitor pretreatment, with: tariquidar 15 mg/kg iv).
For `CC(C)(O)c1ncc([S@](N)(=O)=NC(=O)Nc2c3c(cc4c2CCC4)CCC3)s1`, “nervous system adverse events” read 17% (healthy human; oral, 3 mg single dose, capsule formulation).
`O=C(NS(=O)(=O)c1cccs1)c1cc2ccccc2n1Cc1ccc(Br)c2ccccc12` gave a plasma concentration of 482 ng/mL (Sprague-Dawley rat, male; intravenous, dose not given, 0.5 h).
The tracer uptake of `CC(C(=O)O)n1nc(Cn2cc3cc(OCC[18F])c(Cl)cc3n2)c2ccccc2c1=O` (racemic) is reported as 1.79 %ID/g (rat, liver; 30 min).
`CCCCN1C(=O)c2cccc3c(NCCCCCCCCN4CCOCC4)ccc(c23)C1=O` gave a fluorescence lifetime of 10.3 ns (acetonitrile).
With `C=C(NC(=O)c1csc(-c2nc3c(cc2O)-c2nc(cs2)C(=O)NC(C(C)O)C(=O)NC(=C(C)OC)c2nc(cs2)C(=O)NC2c4nc(cs4)C(=O)NC(COC(=O)c4c5c6c(cccc6n4O)COC(=O)C(OC4CC(C)(O)C(N(C)C)C(C)O4)C2OC5)c2nc-3cs2)n1)C(N)=O` (stereo not shown) the MRT(0-last) was 0.89 h (cynomolgus monkey, female, plasma; intravenous infusion, 1 mg/kg single dose).
For `N=C(N)NCCC[C@@H]1NC(=O)[C@H](CO)NC(=O)[C@@H](NC(=O)[C@H](CO)NC(=O)[C@H](CO)NC(=O)[C@H](Cc2c[nH]c3ccccc23)NC(=O)CNC(=O)[C@H](CO)NC(=O)[C@@H](N)Cc2c[nH]c3ccccc23)CSSC[C@@H](C(=O)NCC(=O)O)NC(=O)[C@H](CO)NC1=O`, the clearance was 946 L/h (patients, plasma; intravenous, 10 mg/kg, thrice weekly, geometric mean).
`COc1cccc(OC)c1-c1cc(C(=O)NC2(C(=O)O)C3CC4CC(C3)CC2C4)nn1-c1ccc(C(=O)N(C)CCCN(C)CCCN(C)C(=O)[C@H](CCCCNC(=O)[C@H](CC(C)C)NC(=O)C2OC2C(=O)O)NC(=O)CN2CCN(CC(=O)[O-])CCN(CC(=O)[O-])CCN(CC(=O)[O-])CC2)cc1C(C)C.[177Lu+3]` (mixture of isomers) gave a tumour-to-liver ratio of 7.31 (mouse, HT-29 xenograft; 72 h post injection, biodistribution; reference: tumour over liver uptake).
The elimination half-life of `CCCCCC(=O)[O][Pt]([Cl])([Cl])[O]C(=O)CCCCC.N.N` is reported as 38.5 h and 38.4 h (ICP-MS, measured: platinum; nude mice, blood; intravenous, 1.76 mg/kg).
`CN1CCC[C@]1(C)/C=C/S(=O)(=O)NC(=O)Nc1c2c(cc3c1C(O)CC3)CCC2` (stereo partly shown) has an AUC(0-tau) of 212 µg·h/mL (human, plasma; oral, 100 mg twice daily of parent drug, day 14, metabolite of dosed drug).
The absorption maximum of `CCCCN1C(=O)c2cccc3c(NCCCN4CCOCC4)ccc(c23)C1=O` is reported as 441 nm (methanol).
For `CCCC[C@H](OC(C)=O)c1ccccc1C(=O)O`, the AUC(0-t) was 1.22 ± 0.371 µg·h/mL (beagle dog, both sexes, whole blood; intravenous, 1.5 mg/kg, day 7).
The Cmax of `CC(=O)N[C@H](CC(=O)O)C(=O)N[C@H](Cc1c[nH]c2ccccc12)C(=O)N[C@H](Cc1ccccc1)C(=O)N[C@H](CCCCN)C(=O)N[C@H](C)C(=O)N[C@H](Cc1ccccc1)C(=O)N[C@H](Cc1ccc(O)cc1)C(=O)N[C@H](CC(=O)O)C(=O)N[C@H](CCCCN)C(=O)N[C@@H](C(=O)N[C@H](C)C(=O)N[C@H](CCC(=O)O)C(=O)N[C@H](CCCCN)C(=O)N[C@H](Cc1ccccc1)C(=O)N[C@H](CCCCN)C(=O)N[C@H](CCC(=O)O)C(=O)N[C@H](C)C(=O)N[C@H](Cc1ccccc1)C(N)=O)C(C)C` is reported as 5.69 ng/mL (high-risk statin-treated subjects with CHD, plasma; oral, dose not given, median, doses pooled).
For `CC[C@H](C)[C@H](NC(=O)[C@H](CCCCN)NC(=O)[C@H](CCC(=O)O)NC(=O)[C@H](CCCCN)NC(=O)[C@H](CC(C)C)NC(=O)[C@H](C)NC(=O)[C@H](C)NC(=O)[C@@H](NC(=O)[C@H](CCCCN)NC(=O)[C@@H]1CSCc2ccccc2CSC[C@H](NC(=O)[C@@H](NC(=O)[C@H](CCCCN)NC(C)=O)[C@@H](C)CC)C(=O)N[C@@H](C)C(=O)N[C@@H](CC(C)C)C(=O)N[C@@H](CCCCN)C(=O)N1)[C@@H](C)CC)C(=O)N[C@@H](C)C(=O)N[C@@H](C)C(=O)N[C@@H](CC(C)C)C(=O)N[C@@H](CCCCN)C(=O)N[C@@H](CCC(=O)O)C(=O)NCC(=O)N[C@@H](Cc1c[nH]c2ccccc12)C(N)=O`, the melting temperature was 27 °C (circular dichroism thermal melting; PBS; pH 7.4, single peptide 50 µM total).
`Cc1nc(N)nc2c1C(=O)N[C@@H](c1ccc(F)cc1-c1cccc(OCC[18F])n1)C2` has an SUV of 0.95 ± 0.1 (ex vivo biodistribution; C57BL/6 mice, plasma; intravenous, 1 MBq, 30 min).
`CN1CCC[C@]1(C)/C=C/S(=O)(=O)NC(=O)Nc1c2c(cc3c1CC(O)C3)CCC2` (stereo partly shown): “AUC(0-tau) accumulation ratio” 1.8 (human, plasma; oral, 50 mg twice daily of parent drug, metabolite of dosed drug; reference: day 14 over day 1).
Under “absorption maximum wavelength”, `CC1(C)C(=CC=C2CCCC(C=CC3=[N+](CCC[N+](C)(C)C)c4ccc(S(=O)(=O)O)cc4C3(C)C)=C2SCCOCCOCCC(=O)O)N(CCC[N+](C)(C)C)c2ccc(S(=O)(=O)O)cc21` is recorded as 779 nm (PBS; pH 7.4).
With `CC(C)C[C@H](NC(=O)[C@H](CCCNC(=N)N)NC(=O)[C@H](Cc1ccccc1)NC(=O)[C@H](Cc1ccccc1)NC(=O)[C@@H](NC(=O)[C@H](CO)NC(=O)[C@H](CO)NC(=O)[C@H](CC(=O)O)NC(=O)[C@H](CO)NC(=O)[C@H](CO)NC(=O)[C@H](CC(=O)O)NC(=O)[C@H](CO)NC(=O)[C@H](CO)NC(=O)[C@H](CC(=O)O)NC(=O)[C@H](CO)NC(=O)[C@H](CO)NC(=O)[C@H](CC(=O)O)NC(=O)[C@H](CO)NC(=O)[C@H](CO)NC(=O)[C@H](CC(=O)O)NC(=O)[C@H](CO)NC(=O)[C@H](CO)NC(=O)[C@H](CC(=O)O)NC(=O)[C@H](CO)NC(=O)[C@H](CO)NC(=O)[C@H](CC(=O)O)NC(=O)[C@H](CO)NC(=O)[C@H](CO)NC(=O)[C@@H](N)CC(=O)O)[C@@H](C)O)C(=O)N[C@@H](Cc1ccccc1)C(=O)N[C@@H](CC(N)=O)C(=O)N[C@@H](CCCNC(=N)N)C(=O)N[C@@H](C)C(=O)N[C@@H](CCCCN)C(=O)N[C@@H](CCCNC(=N)N)C(=O)N[C@@H](Cc1c[nH]cn1)C(=O)N[C@@H](Cc1c[nH]cn1)C(=O)NCC(=O)N[C@@H](Cc1ccc(O)cc1)C(=O)N[C@@H](CCCCN)C(=O)N[C@@H](CCCNC(=N)N)C(=O)N[C@@H](CCCCN)C(=O)N[C@@H](Cc1ccccc1)C(=O)N[C@@H](Cc1c[nH]cn1)C(=O)O` the peptide concentration was 0.894 mg/mL (HPLC-UV; human saliva; 6 h, 37 °C, with: initial 1 mg/mL).
`CCCCN1C(=O)c2cccc3c(NCCCCN4CCOCC4)ccc(c23)C1=O` has an absorption maximum of 425 nm (dioxane).
`CC(=O)N([O-])CCCCCNC(=O)CCC(=O)N([O-])CCCCCNC(=O)CCC(=O)N([O-])CCCCCN.[89Zr+4]` gave an intact complex of 98.2 ± 2% (radio-TLC; aqueous buffer; 3 d, pH 7.2, 37 °C, 89Zr-labelled complex, with: MgCl2 10-fold excess).
With `CN[C@H](CC(C)C)C(=O)N[C@H]1C(=O)N[C@@H](CC(N)=O)C(=O)N[C@H]2CN[C@H]3C(=O)N[C@H](C(=O)N[C@H](C(=O)NCCCNC(=N)N)c4cc(O)cc(O)c4-c4cc3ccc4O)[C@H](O)c3ccc(c(Cl)c3)Oc3cc2cc(c3O[C@@H]2O[C@H](CO)[C@@H](O)[C@H](O)[C@H]2O[C@H]2C[C@](C)(NCc3ccc(-c4ccc(Cl)cc4)cc3)[C@H](O)[C@H](C)O2)Oc2ccc(cc2Cl)[C@H]1O` the clearance was 0.43 mL/min/kg (mouse; intravenous, 50 mg/kg).
With `[123I]c1ccc2nc(-c3ccc(-n4ccnn4)nc3)cn2c1` the tracer uptake was 1.08 %ID/g (male Wistar rat, pancreas; intravenous, 4 MBq, 5 min).
For `Cc1ccc(CN2C(=O)/C(=N\c3ccc(Cl)cc3Br)c3ccccc32)cc1`, the MPV was 5.1 ± 0.08 fL (mouse, blood; 200 mg/kg).

Excerpt of the above:
`COc1cccc(OC)c1-c1cc(C(=O)NC2(C(=O)O)C3CC4CC(C3)CC2C4)nn1-c1ccc(C(=O)N(C)CCCN(C)CCCN(C)C(=O)[C@H](CCCCNC(=O)[C@H](CC(C)C)NC(=O)C2OC2C(=O)O)NC(=O)CN2CCN(CC(=O)[O-])CCN(CC(=O)[O-])CCN(CC(=O)[O-])CC2)cc1C(C)C.[177Lu+3]` (mixture of isomers) gave a tumour-to-liver ratio of 7.31 (mouse, HT-29 xenograft; 72 h post injection, biodistribution; reference: tumour over liver uptake).
The elimination half-life of `CCCCCC(=O)[O][Pt]([Cl])([Cl])[O]C(=O)CCCCC.N.N` is reported as 38.5 h and 38.4 h (ICP-MS, measured: platinum; nude mice, blood; intravenous, 1.76 mg/kg).
`CN1CCC[C@]1(C)/C=C/S(=O)(=O)NC(=O)Nc1c2c(cc3c1C(O)CC3)CCC2` (stereo partly shown) has an AUC(0-tau) of 212 µg·h/mL (human, plasma; oral, 100 mg twice daily of parent drug, day 14, metabolite of dosed drug).
